Experimental data collected from several papers.
Numbers after ± are the reported error.

Structure (SMILES) | test system | setting | scale | endpoint | value
Cc1ccccc1-c1cc(N2CCN(C)CC2)ncc1N(C)C(=O)C(C)(C)c1cc(C(F)(F)F)cc(C(F)(F)F)c1 | healthy volunteers | oral, 300 mg single dose, mean, together with: palonosetron 0.50 mg fixed combination | – | CL/F | 20.9 L/h
CCCCC[C@H](O)CC[C@@H]1[C@H]2Cc3cccc(OCC(=O)O)c3C[C@H]2C[C@H]1O | Japanese patients with PAH, plasma | inhaled, 54 µg four times daily, week 12 | – | CL/F | 75.8 ± 57.6 L/h
CS(=O)(=O)c1ccc([C@@H](O)[C@@H](CF)NC(=O)C(Cl)Cl)cc1 | chicken, HY-Line Brown hens, plasma | oral, 20 mg/kg | – | CL/F | 1.33 ± 0.167 mL/min/kg
O=C1c2cccc3c2[C@H](CCC3)CN1[C@@H]1CN2CCC1CC2 | healthy volunteers | oral, 0.50 mg single dose, mean, together with: netupitant 300 mg fixed combination | – | CL/F | 11.5 L/h
Cc1nc2cccc(N)c2c(=O)n1C1CCC(=O)NC1=O (stereo not drawn) | healthy adults | oral, 3 mg, fasted geometric mean alone | – | CL/F | 4.18 L/h
Nc1nc(NC2CC2)c2ncn([C@H]3C=C[C@@H](CO)C3)c2n1 | HIV-infected patients aged 9-18 years, plasma | oral, 8 mg/kg | – | CL/F | 20.3 mL/min/kg
CC(C(=O)O)c1ccc(-c2ccccc2)c(F)c1 (stereo not drawn) | healthy volunteers | oral, 100 mg, arithmetic mean, together with: control beverage 250 mL | – | CL/F | 1.84 ± 0.582 L/h
Cc1nc(-c2ccc(OCC(C)C)c(C#N)c2)sc1C(=O)O | Japanese paediatric patients | dose not given, mild or moderate renal dysfunction | relative to: adult population | CL/F per body weight | no effect
CC[C@H](C)[C@H](NC(=O)[C@H](Cc1ccccc1)NC(=O)[C@H](CC(=O)O)NC(=O)[C@H](CCCNC(=N)N)NC(=O)[C@H](C)NC(=O)[C@H](C)NC(=O)[C@H](CC(C)C)NC(=O)[C@H](CC(N)=O)NC(=O)[C@H](CC(=O)O)NC(=O)[C@H](CC(C)C)NC(=O)[C@@H](NC(=O)[C@@H](NC(=O)[C@H](CC(N)=O)NC(=O)[C@H](CCSC)NC(=O)[C@H](CCC(=O)O)NC(=O)[C@H](CC(=O)O)NC(=O)[C@H](CO)NC(=O)[C@H](Cc1ccccc1)NC(=O)[C@H](CO)NC(=O)CNC(=O)[C@H](CC(=O)O)NC(=O)CNC(=O)[C@@H](N)Cc1c[nH]cn1)[C@@H](C)O)[C@@H](C)CC)C(=O)N[C@@H](CC(N)=O)C(=O)N[C@@H](Cc1c[nH]c2ccccc12)C(=O)N[C@@H](CC(C)C)C(=O)N[C@H](C(=O)N[C@@H](CCC(N)=O)C(=O)N[C@H](C(=O)N[C@@H](CCCCN)C(=O)N[C@H](C(=O)N[C@H](C(=O)N[C@@H](CC(=O)O)C(=O)O)[C@@H](C)O)[C@@H](C)CC)[C@@H](C)O)[C@@H](C)CC | Japanese patients, mild renal impairment | subcutaneous, 0.05 mg/kg | relative to: normal renal function | CL/F difference | ≤ 10%

A few entries again:
Structure (SMILES) | test system | setting | scale | endpoint | value
Cc1nc(-c2ccc(OCC(C)C)c(C#N)c2)sc1C(=O)O | Japanese paediatric patients | dose not given, mild or moderate renal dysfunction | relative to: adult population | CL/F per body weight | no effect
